# Assay results gathered from unrelated publications.
# ± gives the spread as reported.
# Sequence of UniProt Q96JM7 (whole entry, looked up): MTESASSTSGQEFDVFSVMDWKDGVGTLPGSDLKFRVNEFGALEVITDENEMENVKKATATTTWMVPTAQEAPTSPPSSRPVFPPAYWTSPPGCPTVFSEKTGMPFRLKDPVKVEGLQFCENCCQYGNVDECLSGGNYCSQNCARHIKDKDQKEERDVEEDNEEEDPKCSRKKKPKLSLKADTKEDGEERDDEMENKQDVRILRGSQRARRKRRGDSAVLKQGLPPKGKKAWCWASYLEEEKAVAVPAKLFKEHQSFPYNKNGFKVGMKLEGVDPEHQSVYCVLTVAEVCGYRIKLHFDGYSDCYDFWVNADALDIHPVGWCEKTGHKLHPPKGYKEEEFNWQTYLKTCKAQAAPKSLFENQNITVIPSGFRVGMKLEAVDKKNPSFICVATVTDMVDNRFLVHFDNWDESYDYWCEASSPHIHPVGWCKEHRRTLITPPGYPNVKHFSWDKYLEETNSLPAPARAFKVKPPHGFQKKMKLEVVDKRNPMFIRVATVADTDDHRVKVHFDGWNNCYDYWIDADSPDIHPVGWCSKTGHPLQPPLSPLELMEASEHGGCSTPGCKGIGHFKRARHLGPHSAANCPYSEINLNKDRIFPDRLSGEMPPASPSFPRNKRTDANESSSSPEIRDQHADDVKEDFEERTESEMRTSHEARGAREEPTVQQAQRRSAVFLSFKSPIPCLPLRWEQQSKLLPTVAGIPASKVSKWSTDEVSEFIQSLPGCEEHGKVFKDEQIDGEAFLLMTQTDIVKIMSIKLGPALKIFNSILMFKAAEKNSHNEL
# Sequence of UniProt O15244 (whole entry, looked up): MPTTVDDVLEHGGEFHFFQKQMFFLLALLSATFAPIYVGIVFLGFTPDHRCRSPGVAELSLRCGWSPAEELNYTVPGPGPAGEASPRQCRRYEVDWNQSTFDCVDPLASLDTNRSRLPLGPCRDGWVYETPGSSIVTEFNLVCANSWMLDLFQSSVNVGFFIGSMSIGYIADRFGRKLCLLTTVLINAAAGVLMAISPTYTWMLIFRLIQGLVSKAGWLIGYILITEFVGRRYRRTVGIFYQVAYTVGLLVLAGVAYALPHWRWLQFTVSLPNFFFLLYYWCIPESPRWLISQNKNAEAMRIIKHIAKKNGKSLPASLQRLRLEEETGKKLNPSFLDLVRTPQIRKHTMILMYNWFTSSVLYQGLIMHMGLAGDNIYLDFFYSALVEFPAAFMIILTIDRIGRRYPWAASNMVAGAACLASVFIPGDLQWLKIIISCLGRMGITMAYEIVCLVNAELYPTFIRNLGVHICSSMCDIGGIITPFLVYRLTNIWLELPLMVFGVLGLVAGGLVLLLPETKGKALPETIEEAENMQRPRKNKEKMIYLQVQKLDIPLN
# Sequence of UniProt P08684 (whole entry, looked up): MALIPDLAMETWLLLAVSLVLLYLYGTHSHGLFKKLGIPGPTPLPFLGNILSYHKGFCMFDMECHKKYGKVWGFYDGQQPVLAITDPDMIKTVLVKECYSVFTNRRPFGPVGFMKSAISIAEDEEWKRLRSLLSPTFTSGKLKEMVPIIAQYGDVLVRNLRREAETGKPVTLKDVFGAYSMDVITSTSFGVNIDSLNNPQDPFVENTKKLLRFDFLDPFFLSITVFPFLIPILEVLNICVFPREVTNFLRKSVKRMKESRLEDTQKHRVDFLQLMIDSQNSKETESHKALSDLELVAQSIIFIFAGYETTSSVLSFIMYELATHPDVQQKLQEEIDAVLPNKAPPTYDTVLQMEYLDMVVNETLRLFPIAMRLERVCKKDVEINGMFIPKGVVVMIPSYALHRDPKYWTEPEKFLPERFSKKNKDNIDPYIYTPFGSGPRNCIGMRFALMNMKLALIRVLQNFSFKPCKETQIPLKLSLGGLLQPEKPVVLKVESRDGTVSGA
# Sequence of UniProt O75795 (whole entry, looked up): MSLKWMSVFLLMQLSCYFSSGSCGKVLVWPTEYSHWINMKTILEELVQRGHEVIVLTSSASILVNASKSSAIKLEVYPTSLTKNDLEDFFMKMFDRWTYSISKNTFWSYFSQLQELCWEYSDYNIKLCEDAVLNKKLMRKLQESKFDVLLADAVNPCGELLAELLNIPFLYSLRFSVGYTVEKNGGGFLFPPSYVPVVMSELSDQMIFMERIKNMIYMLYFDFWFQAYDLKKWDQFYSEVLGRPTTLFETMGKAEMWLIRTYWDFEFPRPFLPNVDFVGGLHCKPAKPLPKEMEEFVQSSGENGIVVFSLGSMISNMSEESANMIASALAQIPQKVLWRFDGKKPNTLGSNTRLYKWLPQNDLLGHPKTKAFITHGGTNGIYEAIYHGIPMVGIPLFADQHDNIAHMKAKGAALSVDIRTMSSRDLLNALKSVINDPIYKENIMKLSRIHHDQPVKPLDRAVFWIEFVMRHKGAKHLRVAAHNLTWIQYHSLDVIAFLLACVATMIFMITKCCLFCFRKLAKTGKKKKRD
# Sequence of UniProt O43704 (whole entry, looked up): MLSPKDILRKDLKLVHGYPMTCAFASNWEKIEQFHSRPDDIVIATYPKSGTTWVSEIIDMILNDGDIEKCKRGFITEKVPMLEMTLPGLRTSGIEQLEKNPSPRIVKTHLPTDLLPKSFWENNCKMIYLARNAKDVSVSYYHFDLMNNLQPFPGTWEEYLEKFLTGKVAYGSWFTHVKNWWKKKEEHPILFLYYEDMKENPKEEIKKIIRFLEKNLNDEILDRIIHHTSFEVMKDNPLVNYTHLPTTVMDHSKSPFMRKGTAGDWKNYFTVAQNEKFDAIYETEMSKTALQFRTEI
# Sequence of UniProt Q12809 (whole entry, looked up): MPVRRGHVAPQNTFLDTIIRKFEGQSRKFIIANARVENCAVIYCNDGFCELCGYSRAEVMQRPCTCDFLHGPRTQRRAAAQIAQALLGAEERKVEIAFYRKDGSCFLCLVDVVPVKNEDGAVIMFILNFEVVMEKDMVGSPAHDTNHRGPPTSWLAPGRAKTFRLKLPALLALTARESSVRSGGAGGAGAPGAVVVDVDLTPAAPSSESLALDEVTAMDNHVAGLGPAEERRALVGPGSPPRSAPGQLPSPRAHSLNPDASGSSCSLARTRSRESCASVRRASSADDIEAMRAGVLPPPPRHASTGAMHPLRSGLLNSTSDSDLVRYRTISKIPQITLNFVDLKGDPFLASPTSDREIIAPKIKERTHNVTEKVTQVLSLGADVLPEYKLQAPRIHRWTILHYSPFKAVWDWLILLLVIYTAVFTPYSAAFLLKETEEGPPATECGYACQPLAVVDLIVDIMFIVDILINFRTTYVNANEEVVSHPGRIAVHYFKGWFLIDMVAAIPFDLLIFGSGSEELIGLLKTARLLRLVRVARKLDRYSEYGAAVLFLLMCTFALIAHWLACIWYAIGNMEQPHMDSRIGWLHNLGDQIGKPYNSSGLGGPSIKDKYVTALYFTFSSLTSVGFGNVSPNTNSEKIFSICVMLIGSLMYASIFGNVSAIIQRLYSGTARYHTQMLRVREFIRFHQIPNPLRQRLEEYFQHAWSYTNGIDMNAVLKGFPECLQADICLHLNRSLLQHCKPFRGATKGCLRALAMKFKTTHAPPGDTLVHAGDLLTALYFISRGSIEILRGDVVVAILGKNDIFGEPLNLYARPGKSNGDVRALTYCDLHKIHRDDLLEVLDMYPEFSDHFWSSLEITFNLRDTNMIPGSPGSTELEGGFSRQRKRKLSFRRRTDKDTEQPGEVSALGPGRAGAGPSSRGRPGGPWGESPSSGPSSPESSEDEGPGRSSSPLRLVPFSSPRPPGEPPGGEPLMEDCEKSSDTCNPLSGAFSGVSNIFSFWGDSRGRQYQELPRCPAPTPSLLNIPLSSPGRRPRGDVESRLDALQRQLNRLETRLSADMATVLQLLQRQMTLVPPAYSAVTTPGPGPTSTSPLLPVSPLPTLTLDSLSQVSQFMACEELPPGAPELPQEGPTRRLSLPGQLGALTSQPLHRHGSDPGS
Structure (SMILES),target or system,test,system,setting,endpoint,value
CC(=O)NCCc1c[nH]c2ccc(O)cc12,"SULT1B1 (Homo sapiens, UniProt O43704)","substrate, sulfation, purified enzyme",,"10 µM, 10 min, pH 7.0, 37 °C",specific activity,0.59 ± 0.05 nmol/min/mg
O=C1OC(c2ccccc2)=N/C1=C\c1ccc(O)cc1,bovine serum albumin,"fructose-induced glycation, inhibitor, item: fluorescent AGEs",,"1600 ppm, 21 days, pH 7.4",inhibition,38%
COc1cc(O)c(CC=C(C)C)c2c1C(=O)CC(c1ccc(O)cc1)O2 (stereo not drawn),CYP2D6 (human),"enzyme activity, inhibitor",human liver microsomes,"10 µM, pH 7.4, with: dextromethorphan",inhibition,< 10%
C/C(O)=C(\C#N)C(=O)Nc1ccc(C(F)(F)F)cc1,human BCRP,,MDCK-II cells expressing BCRP,"5 µM, with: Ko143 1 mol/L",efflux ratio,1.44
CC[C@H]1[C@@H](O)[C@@H]2[C@H](CC[C@]3(C)[C@@H]([C@H](C)CCNC(=O)NS(=O)(=O)c4ccc(C(C)(C)C)cc4)CC[C@@H]23)[C@@]2(C)CC[C@@H](O)C[C@@H]12,"Cytochrome P450 3A4 (CYP3A4, Homo sapiens, UniProt P08684)",,"human, plasma","10 mg, day 1, compound alone",Tmax median,4 h
C=CC(=O)N1C[C@H](Nc2ncnc3[nH]ccc23)CC[C@@H]1C,CYP3A,substrate,"human, plasma","oral, 30 mg single dose, cpd alone",Tmax,0.5 h
O=C(O)COc1cccc(-c2nc(Nc3ccc4[nH]ncc4c3)c3ccccc3n2)c1,"UGT2B17 (Homo sapiens, UniProt O75795)","enzyme activity, inhibitor",,with: testosterone,IC50,53.7 µM
Cc1nc(-c2cnc(NC(C)C)n(C)c2=O)ccc1Oc1ccnc(-c2cnn(C)c2)c1,"CYP3A4/5, human",inhibitor,,"30 min, preincubation without NADPH",IC50,> 100 µM
Cc1ccnc([18F])c1-c1cccc(N2C[C@H](N3CCN(C(=O)c4nccs4)CC3)CC2=O)c1,monoacylglycerol lipase,"PET, arterial input","rhesus monkey, brain thalamus","intravenous, baseline",VT,4.5 mL/cm3
NC/C(=C\F)COc1cccc(Cn2c(=S)[nH]c(=O)c3[nH]cnc32)c1,"SLC22A2 (Homo sapiens, UniProt O15244)","transport, inhibitor",CHO cells expressing SLC22A2,"30 µM, with: ASP+ substrate",inhibition,< 50%
CN(Cc1cccnc1)C(=O)c1ccc([C@H]2[C@@H](F)[C@@H](F)C[C@@H](F)[C@H]2F)cc1,,liver microsome stability,dog liver microsomes,1 µM,hepatic clearance,28 mL/min/kg
O=C(c1ccc(C(=O)N2CCC(N3CCCC3)CC2)c(Nc2ccccc2)c1)N1CCC(N2CCCC2)CC1,"Lethal(3)malignant brain tumor-like protein 3 (Homo sapiens, UniProt Q96JM7)",FRAP,human cells,0.01 µM,FRAP recovery half-time,23.8 s
Cc1oc2ccccc2c1Cc1cc(I)c(OCC(=O)O)c(I)c1,"KCNH2 (Homo sapiens, UniProt Q12809)","ion current, two-electrode voltage clamp",Xenopus oocytes expressing hERG1,"50 µM, 5 s depolarizations",half-maximal activation voltage,-42 ± 1.2 mV
COc1cc(O)c(CC=C(C)C)c(O)c1C(=O)/C=C/c1ccc(O)cc1,CYP2D6 (human),"enzyme activity, inhibitor",human liver microsomes,"1 µM, pH 7.4, with: dextromethorphan",inhibition,< 10%
CN(CCC#N)C(=O)c1ccc(C2CCCCC2)cc1,,hepatocyte stability,cryopreserved human hepatocytes,1 µM,hepatic clearance,17 mL/min/kg

# Repeated from above:
Structure (SMILES),target or system,test,system,setting,endpoint,value
O=C1OC(c2ccccc2)=N/C1=C\c1ccc(O)cc1,bovine serum albumin,"fructose-induced glycation, inhibitor, item: fluorescent AGEs",,"1600 ppm, 21 days, pH 7.4",inhibition,38%
Cc1nc(-c2cnc(NC(C)C)n(C)c2=O)ccc1Oc1ccnc(-c2cnn(C)c2)c1,"CYP3A4/5, human",inhibitor,,"30 min, preincubation without NADPH",IC50,> 100 µM
